Measured values gathered from unrelated publications.
Parts stem from different laboratories: compare values within a part only. Substitutions count along the parent as printed.

Set 1
Target: ABI1, truncated, D143A, DHFR fusion (Arabidopsis thaliana)
Technique: DHFR PCA, deep sequencing
Sample: yeast
Notes: methotrexate growth selection, single substitutions
With: (+)-ABA 0 µM
Baseline: wild-type fitted maximum
Direction: higher = stronger binding
Endpoint: relative binding score
Starting sequence: PYL1, truncated, DHFR fusion (Arabidopsis thaliana); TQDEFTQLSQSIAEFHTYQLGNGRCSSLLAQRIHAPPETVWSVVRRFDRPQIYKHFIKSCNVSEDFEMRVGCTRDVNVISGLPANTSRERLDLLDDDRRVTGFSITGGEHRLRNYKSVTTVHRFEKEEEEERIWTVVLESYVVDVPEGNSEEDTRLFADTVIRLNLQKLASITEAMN
Q7I: 18.4%
V78I: 44.7%
E125P: 33.9%
V76F: 2.05%
P83G: 54.4%
E4P: 10.2%
Y115Q: 6.02%

Set 2
Target: Ras GTPase-activating protein-binding protein 1, C-terminal RGG region (G3BP1, Homo sapiens, UniProt Q13283)
Chain of UniProt Q13283 (whole entry, looked up): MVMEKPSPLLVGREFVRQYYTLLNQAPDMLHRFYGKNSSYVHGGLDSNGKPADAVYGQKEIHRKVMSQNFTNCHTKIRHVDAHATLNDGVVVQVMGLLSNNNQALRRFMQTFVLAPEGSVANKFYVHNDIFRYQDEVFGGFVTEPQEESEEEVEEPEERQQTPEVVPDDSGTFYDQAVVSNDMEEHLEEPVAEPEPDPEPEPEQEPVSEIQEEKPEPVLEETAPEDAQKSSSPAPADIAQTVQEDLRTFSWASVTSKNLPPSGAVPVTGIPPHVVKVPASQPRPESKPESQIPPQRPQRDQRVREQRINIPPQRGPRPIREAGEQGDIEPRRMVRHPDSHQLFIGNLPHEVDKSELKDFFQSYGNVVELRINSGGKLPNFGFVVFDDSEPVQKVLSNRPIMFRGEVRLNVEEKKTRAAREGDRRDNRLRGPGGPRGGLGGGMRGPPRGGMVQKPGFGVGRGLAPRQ
Technique: RNA Bind-n-Seq
Form: RNA
Sample: in vitro
Concentration: 1 µM
Notes: whole 134-nt RNA, ends assumed
With: 150 mM KCl
Baseline: input library
Direction: higher = stronger binding
Endpoint: log2 enrichment
All sequences stand within: GGGAGUUCUACAGUCCGACGAUC … UGGAAUUCUCGGGUGUCAAGG
CUCAAGUCCUGUGCUACACAUCGUAUGUACCGAAUCGGGAGGGUGGGUUUGGGAAAGUAUUAUGUUACGCCGUUCGGAUCUGCACUUCCA: 1.89
UCAAGUCCUGUGCUACACAUCGUAUGUACCGAAUCGGUGGAAAAAGGUUUUUGGAAAGUAUUAUGUUACGCCGUUCGGAUCUGCACUUCC: -1.18
UUCCUCAAGUCCUGUGCUACACAUCGUAUGUACCGAAUCGGAGGAGGGAGGAAAGUAUUAUGUUACGCCGUUCGGAUCUGCACUUCCAGC: -1.32
CCUGUGCUACACAUCGUAUGUACCGAAUCGGGUUUUUUGGGGUUUUUUGGGGUUUUUUGGGAAAGUAUUAUGUUACGCCGUUCGGAUCUG: -0.705
CACAGACAACACGCACCCACACAGACACAGAGGGAAGGGGUUGGGAUGGGAACAGGGUGCACAGCAGGGCGGGGUAGGACCCCAGCCCCU: -0.678
UCCUGUGCUACACAUCGUAUGUACCGAAUCGGGGAAAGGGGUUUGGGGUUUUUUUGGGGAAAGUAUUAUGUUACGCCGUUCGGAUCUGCA: 2.63
UAACUUUAGAGGGGGAUCUGAUGGAUAUGGCAGUGGACGUGGAUUUGGGGAUGGCUAUAAUGGGUAUGGAGGAGGACCUGGAGGUGGCAA: -0.0934
CACAGACAACACGCACCCACACAGACACAGAGGGAAGGGGUUGGGAUGGGGACAGAAAGCACAGCAGGGCGGGGUAGGACCCCAGCCCCU: -0.187
UCCUGUGCUACACAUCGUAUGUACCGAAUCGGGAAAAAGGGUUUUUGGGUUUUUUUGGGAAAGUAUUAUGUUACGCCGUUCGGAUCUGCA: -0.657
ACCAUGCAGGUGGGCAUCUUUGGGAAGUGGCGCAAGGGGGGGAUAGGGAGGGGGGUAACACUUUGGGAACAGGUGGUCCCAGGUCGUUUC: -1.29
AGUCCUGUGCUACACAUCGUAUGUACCGAAUCGGGGUGGGGAGGGGUUUUUUUGGGGAAAGUAUUAUGUUACGCCGUUCGGAUCUGCACU: 2.06

Set 3
Target: CCND1, cyclin fold, Cln2 fusion (human)
Technique: yeast growth competition, sequencing
Sample: yeast
Notes: weak parent motif
Baseline: not given
Direction: higher = stronger binding
Endpoint: normalised enrichment score
Starting sequence: WEE1 docking peptide (human); HKTFRKLRLFDTP
HKTFPKLRLFDTP [R5P]: -0.119
HKTFRKLRLFKTP [D11K]: 0.539
HKTFRKLRLFSTP [D11S]: 0.00113
HKTFGKLRLFDTP [R5G]: -0.189
HKTFRKLQLFDTP [R8Q]: 0.744
HKTFRKHRLFDTP [L7H]: -0.665
HKTFRKRRLFDTP [L7R]: -1.02
DKTFRKLRLFDTP [H1D]: 0.548
HKNFRKLRLFDTP [T3N]: -0.635
HKTFRKLGLFDTP [R8G]: 0.141

Other studies, line by line
PhoQ, residues 284 288 289 292 302 303 TASMAF
fold induction (PhoP, residues 12 14 15 18 19 NQAHL (Escherichia coli, UniProt P23836); Sort-seq, item: YFP reporter; E. coli; PhoQ-PhoP variant library, with: 10 µM Mg2+; baseline: high Mg2+ state, higher = stronger signaling): 12.8

Some of these lines once more (set 2):
CACAGACAACACGCACCCACACAGACACAGAGGGAAGGGGUUGGGAUGGGGACAGAAAGCACAGCAGGGCGGGGUAGGACCCCAGCCCCU: -0.187
CUCAAGUCCUGUGCUACACAUCGUAUGUACCGAAUCGGGAGGGUGGGUUUGGGAAAGUAUUAUGUUACGCCGUUCGGAUCUGCACUUCCA: 1.89
CACAGACAACACGCACCCACACAGACACAGAGGGAAGGGGUUGGGAUGGGAACAGGGUGCACAGCAGGGCGGGGUAGGACCCCAGCCCCU: -0.678
UCCUGUGCUACACAUCGUAUGUACCGAAUCGGGAAAAAGGGUUUUUGGGUUUUUUUGGGAAAGUAUUAUGUUACGCCGUUCGGAUCUGCA: -0.657
